Measured values gathered from unrelated publications.
Every numbered part comes from another study and shows a few of its results, in no order.

Sample 1
Target: Histone acetyltransferase KAT6A, winged helix 1, GST fusion (KAT6A, Homo sapiens, UniProt Q92794, residues 1-85)
Method: protein binding microarray
Form: double-stranded DNA, one strand shown
Medium: in vitro
Concentration: not given
Setting: 8-mer, flanks averaged, mean of 2 arrays, mostly near background
Baseline: not given
Reading: higher = stronger binding
Residues (chain): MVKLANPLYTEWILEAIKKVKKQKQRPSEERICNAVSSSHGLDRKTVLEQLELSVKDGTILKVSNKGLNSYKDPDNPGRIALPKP
| Sequence | E-score |
| --- | --- |
| GCTCGTCC | -0.12 |
| GAGGATCC | 0.0113 |
| CTAGAGAC | -0.127 |
| GTTCAGCA | -0.281 |
| CCGCTTCA | 0.231 |
| TGTTAACA | 0.0134 |
| GGTACTAC | 0.121 |
| GTCGCGCA | 0.378 |
| CAAGGAGG | -0.0279 |
| AGATCTCA | -0.107 |
| ATATAATC | -0.00513 |
| ATAGATCA | -0.243 |
| GAAATATC | -0.181 |
| GACTCCAC | -0.0806 |
| CTGTCGAA | -0.0789 |
| CATCGCCA | 0.125 |
| ATCATCAT | -0.0966 |
| GAAACCGC | 0.22 |
| AATAGTGT | -0.0157 |
| AATTGCTA | -0.0049 |
| ACCCACTA | -0.115 |
| ACGTTGTC | -0.06 |
| ATACCGCG | 0.378 |

Sample 2
Target: RNA binding protein fox-1 homolog 2, RRM domain, GST-SBP tag (RBFOX2, Homo sapiens, UniProt O43251-10, residues 100-194)
Method: RNA Bind-n-Seq
Form: RNA
Medium: in vitro
Concentration: 365 nM
Setting: natural RNA segment, single round, ends assumed
Baseline: no-protein control
Reading: higher = stronger binding
Shared flanks, not repeated: GGGAGUUCUACAGUCCGACGAUC … UGGAAUUCUCGGGUGCCAA
Construct (chain): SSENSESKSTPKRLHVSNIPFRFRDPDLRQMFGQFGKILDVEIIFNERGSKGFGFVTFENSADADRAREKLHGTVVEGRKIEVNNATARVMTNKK
| Sequence | RBNS enrichment (R) |
| --- | --- |
| UGACUGCCAUGUGUUCAUCAUCUUAAGUAUUGUAAGCUGCUAUGUAUGGAUUUAAACCGUAAUCAUAUCUUUUUCCUAUCUAUCUGAGGCACUGGUGGAAUAAAAAACCU | 0.357 |
| UGUCCUUGAUCUCCUCUUGUUCCCCUUUCUGCUUGUAGCAGCCUCACUUGGCAAAUGUAACGGCUCAGGUACCCUGGCUUCCUUCCCAGAAACAAGCCUUGCCUGUGCAU | 1.78 |
| CCUGACGGUAAACUCUUCCCUCUUCGGGGGCAGACCCCAUACCCCGGGGCGGGUGCUUAGGCUUUCCUGCCCUGGUGGCCACACCAGCUGCUGUAUUUAUGUGCUUCAUA | 0.239 |
| UAUAUUAGAGGGACUGGGUUUAAAAAAAAUGAUAUAGGGUAGAAAAUAAGAGCUAUACUUACCAGAGUCAAUAGAUCACUGGCUUCUCUUUGCUGUCAAAAGCUACAUUG | 0.439 |
| UGCUAGUGUCGGAGUGUUCUCUGUAACGCGACAGUUCCUUCUGUUGCAAUAGCCCCCCUGCAACACUGCAAUAAUCCUUCAGUGUCUCCCCUGGGCUCAAUUCACUUCCU | 1.13 |
| CAAAGGUUUUCUUACAUCUUCUUCCAUUGCAUAAUAUGCCUUGUGUAAUAGUUAAGAAAUCAUUUUUUCUGAAUGACUUAAAAAAUUUGAUUGAAAAUUUGGCAAAUUAC | 0.917 |
| CAAGAUUCUAGAAAUCAAAGGAGCCAUACAAUCCGGCAGGAGGCAGUGACUGUGGUCUCAGUGCUGGGAGCCCAGGAGGAACCGUCAUGCCUUACCUCCUUCUAAUGGGU | 0.501 |
| UGGUCAGCCCGCUCCCCAGGCCCGUCCCUGCCGCCGCCAGGUGUGGGCUCUAGGCAGGCCGACAAGGUUACACCUCCCAGAGCUUGUGAUCUUCAUUUUCUGACAGUCAA | 0.285 |

Sample 3
Target: Interferon regulatory factor 5, full length, phosphomimetic (IRF5, Homo sapiens, UniProt Q13568-2, residues 1-514, K96S/S451D/S453D/S456D/S462D)
Method: protein-binding microarray
Form: double-stranded DNA, one strand shown
Medium: in vitro
Concentration: 250 nM
Setting: 60-bp whole probe
With: salmon DNA 0.4 mg/ml
Baseline: random background probes
Reading: higher = stronger binding
Shared flanks, not repeated: GCCTAGCAC … GTCTTGATTCGCTTGACGCTGCTG
| Sequence | log fluorescence |
| --- | --- |
| GACGAACTAAGACTGGAGACGTGCTAG | -0.38 z-score |
| TCAGTTTCTCCTTTCCAACTGTGCTAG | 4.08 z-score |
| TCATGTATGGGCATTTTTACTGTGCTA | -0.278 z-score |
| GACGGACTGGGGTTTCGGTACGTGCTA | 4.41 z-score |
| GACGGTTTCGACCCTGGGGACGTGCTA | 3.72 z-score |
| TTAGGTCTCCTTCTCCTTTGGTGCTAG | 0.022 z-score |
| TCAGGTAGCCTTATCCCTAAGTGCTAG | -0.495 z-score |
| TCATGTCTGGGATGTAATACTGTGCTA | 0.102 z-score |
| TTAGGTCTCGGCCTGGGTTAGTGCTAG | -0.202 z-score |
| TTAGATCTCAGTATCGAGTAGTGCTAG | 2.48 z-score |
| GACGGACTGGACTATCGGAACGTGCTA | 1.19 z-score |
| GACGATATCCTACTGCTGACGTGCTAG | 0.128 z-score |
| TTAGATCTCAGTCCCGATTAGTGCTAG | -0.081 z-score |
| GACGGTAGCCTTTTCCTGACGTGCTAG | -0.215 z-score |
| GTTAGTGGGATGGCTGTGGTGTGCTAG | -0.514 z-score |
| GACGGTCTCGTTCTCGGGACGTGCTAG | -0.198 z-score |
| TTAGGTATCCTTCCCCTTTAGTGCTAG | 0.0575 z-score |
| TTTGATTCCAGTTTCGATTAGTGCTAG | 9.58 z-score |

Sample 4
Target: Fragile X messenger ribonucleoprotein 1, C-terminal low-complexity region (Fmr1, Mus musculus, UniProt P35922)
Method: RNA Bind-n-Seq
Form: RNA
Medium: in vitro
Concentration: 200 nM
Setting: whole 134-nt RNA, ends assumed
With: 150 mM KCl
Baseline: input library
Reading: higher = stronger binding
Shared flanks, not repeated: GGGAGUUCUACAGUCCGACGAUC … UGGAAUUCUCGGGUGUCAAGG
| Sequence | log2 enrichment |
| --- | --- |
| AAGUCCUGUGCUACACAUCGUAUGUACCGAAUCGGGUUUUGGGGUUUUGGGUUUUGGAAAGUAUUAUGUUACGCCGUUCGGAUCUGCACU | -0.101 |
| UCCUGUGCUACACAUCGUAUGUACCGAAUCGGGGUUUGGGGUUUUUGGGGAAAAAGGGGAAAGUAUUAUGUUACGCCGUUCGGAUCUGCA | 0.68 |
| CAAGUCCUGUGCUACACAUCGUAUGUACCGAAUCGGGUUUGGGUUUGGUUUGGGGAAAGUAUUAUGUUACGCCGUUCGGAUCUGCACUUC | 0.47 |
| UCCUGUGCUACACAUCGUAUGUACCGAAUCGGGGAAAAAGGGAAAAAGGGAAAAAGGGGAAAGUAUUAUGUUACGCCGUUCGGAUCUGCA | 0.00284 |
| UCAAGUCCUGUGCUACACAUCGUAUGUACCGAAUCGGAAAGGUGGUUUUUUUGGAAAGUAUUAUGUUACGCCGUUCGGAUCUGCACUUCC | -0.664 |
| GCAGGAAGUAAAAACAAAUGGAAAUGCGUCGGAUAGUGGCAGGGGUGGGGGUUGCUAAGGAAAGGGUGGGAUGGGAGUGGGUAAAGAGUU | -0.307 |
| UGCGGGCCGAGAAUCGGGAGCUGGGCAAACGCGUACAGGCACUGCAGGAGGAGAGUCGCUACCUACGGGCAGUCUUAGCCAACGAGACUG | -1.17 |
| GGGCCCUGGUGGCAUGCGGGGAGGAAGAGGUGGCCUCAUGGAUCGUGGUGGUCCCGGUGGAAUGUUCAGAGGUGGCCGUGGUGGAGACAG | 0.266 |
| AAGUCCUGUGCUACACAUCGUAUGUACCGAAUCGGGAAAAAAAGGGAAAGGGUGGGAAAGUAUUAUGUUACGCCGUUCGGAUCUGCACUU | 0.733 |

Some of these lines once more (sample 3):
| Sequence | log fluorescence |
| --- | --- |
| GACGAACTAAGACTGGAGACGTGCTAG | -0.38 z-score |
| TCAGTTTCTCCTTTCCAACTGTGCTAG | 4.08 z-score |
| TCATGTATGGGCATTTTTACTGTGCTA | -0.278 z-score |
| GACGGACTGGGGTTTCGGTACGTGCTA | 4.41 z-score |
| GACGGTTTCGACCCTGGGGACGTGCTA | 3.72 z-score |
